Measured values of several laboratories.
Lines come from different studies, so protocols differ. “And” joins repeats or separate records; there may be more than shown. ± gives the spread as reported.

| SMILES | tested on | assay | test system | conditions | scale | endpoint | value |
| --- | --- | --- | --- | --- | --- | --- | --- |
| CCOc1ccc(CN2CC[C@H]2C(=O)NC)cc1-c1cccc(C(=O)NC[C@@H]2COC(C)(C)O2)c1 | Huh-7-ACE2 | CellTiter-Glo |  | 0.391 µM, 48 h, unit not given | baseline: DMSO | viability | 0.933 and 0.906 and 0.936 |
| CC(=O)N[C@H]1[C@H](Oc2ccc(C[C@H](NC(=O)CN)C(=O)N[C@@H](CCC(=O)O)C(=O)N[C@H](C(=O)N[C@@H](Cc3c[nH]cn3)C(=O)N[C@@H](Cc3c[nH]cn3)C(=O)N[C@@H](CCC(N)=O)C(=O)N[C@@H](CCCCN)C(=O)N[C@@H](CC(C)C)C(=O)N[C@H](C(=O)N[C@@H](Cc3ccccc3)C(=O)N[C@@H](Cc3ccccc3)C(=O)N[C@@H](C)C(N)=O)C(C)C)C(C)C)cc2)O[C@H](CO)[C@H](O)[C@@H]1O | SH-SY5Y | CCK-8 |  | 12.5 µM, 24 h | baseline: untreated | viability | 97.3% and 90.4% and 102% and 94.7% |
| CNC(=O)C[C@H](Cc1ccncc1)NC(=O)[C@@H](Cc1cccc(Br)c1)NC(=O)[C@@H](N)Cc1ccsc1 | Huh-7-ACE2 | CellTiter-Glo |  | 0.00153 µM, 48 h, unit not given | baseline: DMSO | viability | 1.05 and 1 and 1.17 |
| CNC(=S)N/N=C/c1ccc(OCc2ccccc2)cc1 | IMR-32 | MTT |  | 500 µg/mL, 24 h | baseline: untreated control | viability | 43.5% |
| O=C1NC2(CC2)COc2ncc(F)cc2[C@H]2COCCN2c2ccn3ncc1c3n2 |  |  | Sprague-Dawley rat, female, kidneys | oral, 2.5 mg/kg/day, 4 weeks dosing, end of recovery |  | organ-to-body weight ratio | 0.621 ± 0.03% |
| CNC(=O)C[C@H](Cc1ccccc1)NC(=O)[C@@H](Cc1ccc(Cl)cc1Cl)NC(=O)[C@H](N)Cc1ccccc1C#N | Huh-7-ACE2 | CellTiter-Glo |  | 0.0122 µM, 48 h, unit not given | baseline: DMSO | viability | 1.09 and 0.967 and 0.91 |
| O=c1n(CCNCCOS(=O)(=O)c2ccccc2)c(=O)n(S(=O)(=O)c2ccccc2)c(=O)n1S(=O)(=O)c1ccccc1 | HUVEC | cell growth or viability, MTT |  | 100 µg/mL, 24 h |  | viability | 59.5% |
| NC(=O)N/N=C/c1ccc(OCc2cccc(F)c2)cc1 | IMR-32 | MTT |  | 400 µg/mL, 24 h | baseline: untreated control | viability | 43.8% |
| CNC(=O)CC[C@H](Cc1ccccc1)NC(=O)[C@@H](Cc1ccc(Cl)cc1Cl)NC(=O)[C@H](N)Cc1ccccc1[N+](=O)[O-] | Huh-7-ACE2 | CellTiter-Glo |  | 6.25 µM, 48 h, unit not given | baseline: DMSO | viability | 0.91 and 0.984 and 1.04 |
| NC(=S)N/N=C/c1ccc(OCc2ccccc2)cc1 | IMR-32 | MTT |  | 400 µg/mL, 24 h | baseline: untreated control | viability | 35.4% |
| CC=CCC(C)C(O)C1C(=O)NC(CC)C(=O)N(C)C(OCC)C(=O)N(C)C(CC(C)(C)O)C(=O)NC(C(C)C)C(=O)N(C)C(CC(C)C)C(=O)NC(C)C(=O)NC(C)C(=O)N(C)C(CC(C)C)C(=O)N(C)C(CC(C)C)C(=O)N(C)C(C(C)C)C(=O)N1C (stereo not shown) | primary human hepatocytes | MTT |  | up to 80 µM |  | viability | not toxic |
| NC(=S)N/N=C/c1ccc(OCc2cccc(F)c2)cc1 | IMR-32 | MTT |  | 400 µg/mL, 24 h | baseline: untreated control | viability | 37.9% |
| CC(C)(C)N1Cc2cc(-c3nc4ccccc4s3)cc(n2)CN(C(C)(C)C)Cc2cc(-c3nc4ccccc4s3)cc(n2)C1 | SH-SY5Y | AlamarBlue |  | 20 µM, 40 h |  | viability | ~60% |

A few entries again:
| SMILES | tested on | assay | test system | conditions | scale | endpoint | value |
| --- | --- | --- | --- | --- | --- | --- | --- |
| CNC(=O)C[C@H](Cc1ccccc1)NC(=O)[C@@H](Cc1ccc(Cl)cc1Cl)NC(=O)[C@H](N)Cc1ccccc1C#N | Huh-7-ACE2 | CellTiter-Glo |  | 0.0122 µM, 48 h, unit not given | baseline: DMSO | viability | 1.09 and 0.967 and 0.91 |
